Results collected from several papers.
Every numbered part comes from another study and shows a few of its results, in no order. Positions count from the first letter of the parent shown.

Block 1
Target: vanadate, free oxyanion
Technique: microfluidic competitive inhibition
Medium: in vitro, cell-free expressed
Tested at: not given
Notes: derived from inhibition constants, unchanged parent 676 nM
Direction: lower = stronger binding
Starting sequence: PafA, mature enzyme, eGFP fusion (Elizabethkingia meningoseptica, UniProt Q9KJX5); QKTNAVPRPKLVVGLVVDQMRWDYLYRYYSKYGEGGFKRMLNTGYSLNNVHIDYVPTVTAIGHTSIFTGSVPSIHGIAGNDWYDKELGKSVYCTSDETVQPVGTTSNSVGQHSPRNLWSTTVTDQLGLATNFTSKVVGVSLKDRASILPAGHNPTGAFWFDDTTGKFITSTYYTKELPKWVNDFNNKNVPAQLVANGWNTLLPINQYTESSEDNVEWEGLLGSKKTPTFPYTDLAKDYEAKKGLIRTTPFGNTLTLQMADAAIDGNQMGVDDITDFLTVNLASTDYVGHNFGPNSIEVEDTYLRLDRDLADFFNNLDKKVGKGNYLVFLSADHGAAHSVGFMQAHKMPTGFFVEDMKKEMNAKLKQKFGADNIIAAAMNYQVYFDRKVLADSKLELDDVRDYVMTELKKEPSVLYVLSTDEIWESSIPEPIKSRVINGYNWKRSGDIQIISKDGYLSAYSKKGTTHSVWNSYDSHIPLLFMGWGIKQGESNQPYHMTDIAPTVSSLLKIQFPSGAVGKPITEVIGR
Substitution	oxyanion analog dissociation constant
Y45G	602 nM
V139A	577 nM
N361V	708 nM
N290V	885 nM
T104V	510 nM
Y231V	674 nM
F250G	449 nM
S119G	401 nM

Block 2
Target: UDP-N-acetylglucosamine--peptide N-acetylglucosaminyltransferase 110 kDa subunit (OGT, Homo sapiens, UniProt O15294)
Sequence of UniProt O15294 (whole entry, looked up): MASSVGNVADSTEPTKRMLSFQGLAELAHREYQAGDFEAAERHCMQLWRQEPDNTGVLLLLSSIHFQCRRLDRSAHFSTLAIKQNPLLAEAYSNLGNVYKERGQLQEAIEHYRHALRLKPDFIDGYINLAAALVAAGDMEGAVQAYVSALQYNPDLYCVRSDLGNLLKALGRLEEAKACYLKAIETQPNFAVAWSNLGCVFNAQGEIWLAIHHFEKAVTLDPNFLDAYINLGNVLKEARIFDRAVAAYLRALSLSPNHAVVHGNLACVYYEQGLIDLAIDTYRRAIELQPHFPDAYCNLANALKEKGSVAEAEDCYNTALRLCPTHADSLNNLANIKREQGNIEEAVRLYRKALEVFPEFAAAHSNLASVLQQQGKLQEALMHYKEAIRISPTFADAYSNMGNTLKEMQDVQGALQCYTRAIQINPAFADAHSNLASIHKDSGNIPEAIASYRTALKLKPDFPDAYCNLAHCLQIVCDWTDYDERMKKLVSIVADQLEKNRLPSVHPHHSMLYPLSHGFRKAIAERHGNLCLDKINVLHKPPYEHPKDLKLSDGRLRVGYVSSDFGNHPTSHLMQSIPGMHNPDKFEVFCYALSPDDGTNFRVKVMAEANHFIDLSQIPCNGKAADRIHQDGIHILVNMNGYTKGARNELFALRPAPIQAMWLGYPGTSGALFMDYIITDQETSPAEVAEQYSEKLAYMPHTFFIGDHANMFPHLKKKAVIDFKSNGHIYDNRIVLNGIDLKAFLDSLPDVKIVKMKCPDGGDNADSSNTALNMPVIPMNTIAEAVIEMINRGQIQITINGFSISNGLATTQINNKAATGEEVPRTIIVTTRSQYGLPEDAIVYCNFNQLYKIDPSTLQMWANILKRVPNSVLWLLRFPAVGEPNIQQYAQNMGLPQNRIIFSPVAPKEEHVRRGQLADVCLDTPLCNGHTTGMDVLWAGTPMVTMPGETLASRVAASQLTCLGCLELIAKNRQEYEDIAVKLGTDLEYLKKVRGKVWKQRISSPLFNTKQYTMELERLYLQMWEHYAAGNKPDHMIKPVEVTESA
Effect on: phage display binding
Technique: phage display panning NGS
Molecule type: peptide
Notes: panning round 3
Reference: OGT-panned over input library
Sequence	fold enrichment
SWMPFYQIEFSQGSS	3.45
YEPMYLPQYQMIWNK	4.11
GRFNPVYQMVWEKTV	3.75
STFGRYLPSYIIQYR	3.16
SNKQDLMPAYQIQYG	3.24
DDTGPFQPMYQIQII	4.56

Block 3
Substitution: T6I
Target: ABI1, truncated, D143A, DHFR fusion (Arabidopsis thaliana)
Technique: DHFR PCA, deep sequencing
Medium: yeast
Notes: methotrexate growth selection, single substitutions
Reference: wild-type fitted maximum
Direction: higher = stronger binding
Starting sequence: PYL1, truncated, DHFR fusion (Arabidopsis thaliana); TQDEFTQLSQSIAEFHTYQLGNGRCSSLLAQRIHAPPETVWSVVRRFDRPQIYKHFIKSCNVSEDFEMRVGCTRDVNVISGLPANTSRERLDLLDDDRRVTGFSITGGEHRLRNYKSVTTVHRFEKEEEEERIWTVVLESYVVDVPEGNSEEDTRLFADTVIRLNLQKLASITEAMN; partner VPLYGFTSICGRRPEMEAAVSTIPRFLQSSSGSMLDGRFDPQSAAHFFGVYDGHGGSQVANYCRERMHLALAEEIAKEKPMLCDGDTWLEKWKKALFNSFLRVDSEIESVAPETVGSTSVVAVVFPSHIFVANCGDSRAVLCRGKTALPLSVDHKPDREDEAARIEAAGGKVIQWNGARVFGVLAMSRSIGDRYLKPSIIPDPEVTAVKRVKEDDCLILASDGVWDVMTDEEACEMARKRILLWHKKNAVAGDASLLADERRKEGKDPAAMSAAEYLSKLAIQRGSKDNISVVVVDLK
setting	relative binding score
with: (+)-ABA 710 µM	99.4%
with: (+)-ABA 0.11 µM	37.2%
with: (+)-ABA 0.032 µM	27.7%
with: (+)-ABA 200 µM	98.2%
with: (+)-ABA 0.39 µM	50.6%
with: (+)-ABA 58 µM	82.9%

Block 4
Target: Sal-like protein 4, full length isoform A (SALL4, Homo sapiens, UniProt Q9UJQ4, residues 1-1053)
Sequence of UniProt Q9UJQ4 (whole entry, looked up): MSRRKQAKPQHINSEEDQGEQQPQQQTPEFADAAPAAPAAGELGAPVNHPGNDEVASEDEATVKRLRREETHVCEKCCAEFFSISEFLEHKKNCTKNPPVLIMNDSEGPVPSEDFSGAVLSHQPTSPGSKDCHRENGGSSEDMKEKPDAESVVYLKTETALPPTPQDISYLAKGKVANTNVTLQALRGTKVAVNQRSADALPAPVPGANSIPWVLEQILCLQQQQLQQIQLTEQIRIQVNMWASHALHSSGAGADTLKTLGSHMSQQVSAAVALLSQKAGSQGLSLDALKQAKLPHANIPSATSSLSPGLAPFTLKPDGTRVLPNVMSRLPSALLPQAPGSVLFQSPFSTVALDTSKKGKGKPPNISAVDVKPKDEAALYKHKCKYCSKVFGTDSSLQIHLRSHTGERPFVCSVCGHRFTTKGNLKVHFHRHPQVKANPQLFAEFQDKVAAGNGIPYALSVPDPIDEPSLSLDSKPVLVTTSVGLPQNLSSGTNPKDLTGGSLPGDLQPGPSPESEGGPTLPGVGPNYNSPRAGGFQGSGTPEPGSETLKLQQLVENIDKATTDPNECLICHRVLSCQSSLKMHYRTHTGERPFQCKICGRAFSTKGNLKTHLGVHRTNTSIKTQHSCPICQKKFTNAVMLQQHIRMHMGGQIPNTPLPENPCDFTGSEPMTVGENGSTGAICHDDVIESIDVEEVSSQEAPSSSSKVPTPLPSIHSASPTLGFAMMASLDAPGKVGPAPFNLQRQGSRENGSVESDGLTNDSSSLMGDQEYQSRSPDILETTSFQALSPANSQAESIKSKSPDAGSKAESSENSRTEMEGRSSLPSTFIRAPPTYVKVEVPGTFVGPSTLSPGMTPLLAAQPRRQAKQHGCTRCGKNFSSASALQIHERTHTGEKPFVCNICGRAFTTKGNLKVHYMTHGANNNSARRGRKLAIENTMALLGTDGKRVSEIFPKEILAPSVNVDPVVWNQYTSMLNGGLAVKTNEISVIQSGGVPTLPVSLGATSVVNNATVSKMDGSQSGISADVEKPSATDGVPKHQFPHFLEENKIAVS
Technique: universal PBM
Molecule type: double-stranded DNA, one strand shown
Medium: in vitro
Tested at: 600 nM
Notes: 8-mer, flanks averaged, mean of replicates
Direction: higher = stronger binding
Strand	E-score
GGACGTAA	-0.0278
ATTCTAGG	0.169
CAACGTCA	-0.0305
GGTTTCAC	-0.0291
CTGGGGGC	-0.409
GGCCCACC	-0.358
GGTATCGA	0.0678
AGAAAACT	0.0727

Block 5
Target: CCNA2, cyclin fold, Cln2 fusion (human)
Technique: yeast growth competition, sequencing
Medium: yeast
Notes: strong parent motif
Reference: not given
Direction: higher = stronger binding
Starting sequence: viral docking peptide; YKVKRRLVFGADD
Substitution	normalised enrichment score
YKVKCRLVFGADD [R5C]	4.53
YKVKRRLLFGADD [V8L]	6.47
YKVKRRKVFGADD [L7K]	0.462
YVVKRRLVFGADD [K2V]	5.88
YKVKRFLVFGADD [R6F]	2.51
YKIKRRLVFGADD [V3I]	6.14
YKVKRLLVFGADD [R6L]	3.68
YKVKRRLVFGATD [D12T]	6.65
YKVKRRLVFGMDD [A11M]	6.34
YKVKRRLVFWADD [G10W]	5.97
YKVKRRLVFTADD [G10T]	6.03
YKVKRRLVGGADD [F9G]	0.643
YKVKRRLVCGADD [F9C]	1.14
YKVKRRLVFSADD [G10S]	5.86
YKVKRRLVFEADD [G10E]	6.24
YKVKRRLVFGAAD [D12A]	6.53
YKVKRELVFGADD [R6E]	5.26
YKVKRREVFGADD [L7E]	0.182
YKVFRRLVFGADD [K4F]	3.98
YKVMRRLVFGADD [K4M]	4.12
YKVKRRLVEGADD [F9E]	-0.0654
YSVKRRLVFGADD [K2S]	5.8
YGVKRRLVFGADD [K2G]	6.09
YKVKRRLVFGLDD [A11L]	6.3
YKVKRRLVFGAMD [D12M]	6.55
